Assay results from different studies.
Protocols differ between the studies behind these lines. Values joined by “and” are separate records of one study, mostly repeats; a detail may differ. Numbers after ± are the reported error.

The IC10 of CCOP(=O)(OCC)Oc1ccc([N+](=O)[O-])cc1 is reported as 155 µM (SH-SY5Y; cell viability; freely dissolved concentration).
The IC50 of COc1ncncc1-c1cn([C@@H]2O[C@](F)(CO[P@@](=O)(N[C@@H](C)C(=O)OC(C)C)Oc3ccccc3)[C@@H](O)[C@H]2O)cn1 is reported as greater than 100 µM (Zaire ebolavirus; viral replication, reporter virus; Huh-7; 72 h).
With CC(C)[C@H]1C(=O)O[C@H](C(C)C)C(=O)N(C)[C@@H](C(C)C)C(=O)O[C@H](C(C)C)C(=O)N(C)[C@@H](C(C)C)C(=O)O[C@H](C(C)C)C(=O)N1C the tissue concentration was 0.45 ± 0.01 µg/kg (LC-MS/MS; CB-17 scid/scid mice, serum; intraperitoneal, 5 mg/kg, 24 h after last dose, daily dosing).
CC(C)C[C@@H]1NC(=O)[C@H](Cc2c[nH]cn2)NC(=O)[C@H](CCCCN)NC(=O)[C@@H]2CSSC[C@H](NC(=O)[C@@H](N)CCC(=O)O)C(=O)N[C@@H](CCCNC(=N)N)C(=O)N[C@@H](Cc3ccc(O)cc3)C(=O)N[C@@H](CC(C)C)C(=O)N[C@@H](Cc3ccccc3)C(=O)NCC(=O)NCC(=O)N[C@H]3CSSC[C@H](NC(=O)CNC1=O)C(=O)N[C@@H](CCCCN)C(=O)N[C@@H](Cc1ccccc1)C(=O)N[C@@H](CCCNC(=N)N)C(=O)N[C@@H](CC(=O)O)C(=O)N[C@@H](CCCCN)C(=O)N[C@@H](Cc1ccc(O)cc1)C(=O)N[C@H](C(=O)N[C@@H](C)C(=O)N[C@@H](Cc1c[nH]c4ccccc14)C(=O)N[C@@H](CC(=O)O)C(=O)N[C@@H](Cc1ccccc1)C(=O)N[C@H](C(=O)N[C@@H](Cc1ccccc1)C(=O)N[C@@H](CO)C(=O)O)[C@@H](C)O)CSSC[C@H](NC(=O)[C@H](CC(=O)O)NC(=O)[C@H](CO)NC(=O)[C@H]([C@@H](C)O)NC(=O)[C@H]([C@@H](C)O)NC(=O)[C@H](CCCCN)NC3=O)C(=O)N2 — result for “mole fraction partition coefficient”: 4.8e+06 ± 400000 (Trp fluorescence titration; POPC:POPG LUVs; pH 7, 2 µM toxin).
For COc1ncc(-c2cn([C@@H]3O[C@](F)(CO)[C@@H](O)[C@H]3O)cn2)c(N)n1, the IC50 was 39 µM (Zaire ebolavirus; viral replication, reporter virus; Huh-7; 72 h).
The EC50 of CC[C@H](C)[C@H](NC(=O)CNC(=O)CNC(=O)[C@@H](NC(=O)[C@@H](N)CCCNC(=N)N)[C@@H](C)CC)C(=O)N[C@@H](CC(C)C)C(=O)N[C@@H](CCCCN)C(=O)N[C@H](C(=O)N[C@@H](CC(C)C)C(=O)N[C@@H](CCCCN)C(=O)N[C@@H](CCCCN)C(=O)N[C@H](C(=O)N[C@@H](CC(C)C)C(=O)N1CCC[C@H]1C(=O)N[C@@H](CCCCN)C(=O)N[C@@H](C)C(=O)N[C@H](C(=O)N[C@@H](CCCCN)C(=O)N[C@@H](C)C(=O)N[C@@H](C)C(=O)N[C@@H](C)C(=O)N[C@@H](CCC(=O)O)C(=O)N[C@@H](CCSC)C(=O)N[C@@H](C)C(=O)N1CCC[C@H]1C(=O)N1CCC[C@H]1C(=O)N[C@@H](CCC(N)=O)C(=O)N[C@@H](CC(N)=O)C(=O)N[C@@H](CCC(=O)O)C(=O)O)[C@@H](C)CC)C(C)C)[C@@H](C)CC is reported as 14.7 µM (Drosophila melanogaster; calcium response, calcium imaging; class III da neurons, ppk1.9-Gal4 UAS-GCaMP6f).
COc1cc2ncnc(Nc3cccc(Cl)c3)c2cc1OC has an infection of 103% and 99.4% and 106% (Monkeypox virus; viral infection; replication-deficient; 0.137 µM; baseline: untreated).
The inhibition of C=CCNc1nnc(Sc2ncnc3ccsc23)s1 is reported as 31% (MERS-CoV spike VSV pseudovirus; pseudovirus entry; 10 µM).
CC[C@H](C)[C@H](NC(=O)[C@H](CCC(N)=O)NC(=O)[C@H](CC(=O)O)NC(=O)[C@@H](NC(=O)[C@H](C)NC(=O)[C@H](C)NC(=O)[C@H](CC(N)=O)NC(=O)[C@@H](NC(=O)[C@@H](NC(=O)[C@H](C)NC(=O)[C@H](CCC(=O)O)NC(=O)CNC(=O)[C@H](C)NC(=O)[C@H](C)NC(=O)[C@H](CCC(=O)O)NC(=O)[C@H](C)NC(=O)[C@H](C)NC(=O)CNC(=O)[C@H](CCCCN)NC(=O)CNC(=O)[C@H](Cc1ccccc1)NC(=O)[C@H](CO)NC(=O)[C@@H](NC(=O)[C@H](CC(C)C)NC(=O)[C@@H](NC(=O)[C@H](CC(N)=O)NC(=O)[C@H](CCCNC(=N)N)NC(=O)CNC(=O)[C@H](Cc1ccccc1)NC(=O)[C@H](CCCCN)NC(=O)[C@H](CO)NC(=O)CNC(=O)[C@H](CCCCN)NC(=O)[C@H](CCCNC(=N)N)NC(=O)[C@H](CCCCN)NC(=O)[C@H](CCCCN)NC(=O)[C@H](CCCNC(=N)N)NC(=O)[C@@H](N)CCCCN)[C@@H](C)CC)[C@@H](C)O)[C@@H](C)O)C(C)C)C(C)C)C(=O)N[C@@H](CC(C)C)C(=O)N[C@@H](CCC(=O)O)C(=O)N[C@@H](C)C(=O)N[C@@H](CCC(N)=O)C(=O)NCC(=O)N[C@@H](CCC(=O)O)C(=O)NCC(=O)N[C@@H](CCC(=O)O)C(=O)N[C@@H](Cc1ccc(O)cc1)C(=O)O has an EC50 of 2.45 µM (Drosophila melanogaster; calcium response, calcium imaging; class IV da neurons, ppk1.9-Gal4 UAS-GCaMP6f).

For quick reference, copied from above:
The inhibition of C=CCNc1nnc(Sc2ncnc3ccsc23)s1 is reported as 31% (MERS-CoV spike VSV pseudovirus; pseudovirus entry; 10 µM).
